Results of several laboratories.
Numbered parts are unrelated; each lists some results of a single study. Changes are numbered by the printed parent chain. ± marks the error that the study gave.
Sequence of UniProt P41143 (whole entry, looked up): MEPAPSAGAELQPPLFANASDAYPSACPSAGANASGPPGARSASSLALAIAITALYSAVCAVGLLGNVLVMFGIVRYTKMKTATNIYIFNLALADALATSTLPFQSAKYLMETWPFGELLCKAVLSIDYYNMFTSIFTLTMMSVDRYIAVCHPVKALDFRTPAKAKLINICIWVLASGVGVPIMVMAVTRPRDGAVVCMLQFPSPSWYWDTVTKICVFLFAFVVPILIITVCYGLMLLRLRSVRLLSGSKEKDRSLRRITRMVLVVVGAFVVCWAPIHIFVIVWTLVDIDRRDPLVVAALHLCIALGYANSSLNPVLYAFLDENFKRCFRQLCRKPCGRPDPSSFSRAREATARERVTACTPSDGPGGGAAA

Sample 1 — effect on: binding; technique: phage display NGS; molecule type: peptide; tested at: concentration not given; relative to: input library
Target: UDP-N-acetylglucosamine--peptide N-acetylglucosaminyltransferase 110 kDa subunit (OGT, Homo sapiens, UniProt O15294)
Sequence of UniProt O15294 (whole entry, looked up): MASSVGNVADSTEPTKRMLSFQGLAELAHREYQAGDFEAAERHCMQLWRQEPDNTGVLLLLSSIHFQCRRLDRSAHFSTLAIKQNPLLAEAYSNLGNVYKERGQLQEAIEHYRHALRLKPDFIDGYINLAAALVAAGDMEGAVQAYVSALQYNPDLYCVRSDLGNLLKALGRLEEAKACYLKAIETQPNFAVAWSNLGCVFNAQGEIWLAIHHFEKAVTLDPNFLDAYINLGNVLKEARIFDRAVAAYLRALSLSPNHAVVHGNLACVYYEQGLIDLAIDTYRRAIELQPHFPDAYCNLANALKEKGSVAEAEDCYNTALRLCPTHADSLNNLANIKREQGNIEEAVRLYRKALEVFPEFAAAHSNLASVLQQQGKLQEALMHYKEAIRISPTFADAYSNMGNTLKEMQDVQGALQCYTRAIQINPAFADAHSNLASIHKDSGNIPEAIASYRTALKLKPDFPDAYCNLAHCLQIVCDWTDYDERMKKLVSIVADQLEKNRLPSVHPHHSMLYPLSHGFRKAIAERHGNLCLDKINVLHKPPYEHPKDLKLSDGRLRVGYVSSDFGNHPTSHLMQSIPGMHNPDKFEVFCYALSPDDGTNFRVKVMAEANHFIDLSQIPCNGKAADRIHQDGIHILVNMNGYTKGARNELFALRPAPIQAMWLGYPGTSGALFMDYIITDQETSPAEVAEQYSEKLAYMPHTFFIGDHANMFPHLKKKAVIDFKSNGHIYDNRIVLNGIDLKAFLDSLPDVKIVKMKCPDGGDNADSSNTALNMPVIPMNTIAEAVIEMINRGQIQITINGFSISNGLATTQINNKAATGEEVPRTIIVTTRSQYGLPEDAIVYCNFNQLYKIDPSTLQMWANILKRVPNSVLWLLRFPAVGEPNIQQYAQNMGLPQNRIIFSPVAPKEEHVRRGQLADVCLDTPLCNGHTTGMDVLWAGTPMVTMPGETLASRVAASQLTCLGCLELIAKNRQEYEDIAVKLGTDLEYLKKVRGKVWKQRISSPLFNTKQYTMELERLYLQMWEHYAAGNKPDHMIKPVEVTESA
Molecule	enrichment fold change
HSPHGTGWMQGHNAH	9.7
YIERTSVMPQYQITY	21
VVQQEYRPRYQISFK	4.09
EFFPPAYQLVVPYGD	9.39
ESHQYSFKPMYQIVI	3.3
HWNEGTHSTWFPHMH	4.6
ADFQLTYKPLYQIVA	3.3
LIARPYQPLYQIIPF	5.33

Sample 2 — target: tungstate, free oxyanion; technique: microfluidic competitive inhibition; matrix: in vitro, cell-free expressed; tested at: not given; reading: lower = stronger binding
Notes: derived from inhibition constants, unchanged parent 2230 nM
Starting sequence: PafA, mature enzyme, eGFP fusion (Elizabethkingia meningoseptica, UniProt Q9KJX5); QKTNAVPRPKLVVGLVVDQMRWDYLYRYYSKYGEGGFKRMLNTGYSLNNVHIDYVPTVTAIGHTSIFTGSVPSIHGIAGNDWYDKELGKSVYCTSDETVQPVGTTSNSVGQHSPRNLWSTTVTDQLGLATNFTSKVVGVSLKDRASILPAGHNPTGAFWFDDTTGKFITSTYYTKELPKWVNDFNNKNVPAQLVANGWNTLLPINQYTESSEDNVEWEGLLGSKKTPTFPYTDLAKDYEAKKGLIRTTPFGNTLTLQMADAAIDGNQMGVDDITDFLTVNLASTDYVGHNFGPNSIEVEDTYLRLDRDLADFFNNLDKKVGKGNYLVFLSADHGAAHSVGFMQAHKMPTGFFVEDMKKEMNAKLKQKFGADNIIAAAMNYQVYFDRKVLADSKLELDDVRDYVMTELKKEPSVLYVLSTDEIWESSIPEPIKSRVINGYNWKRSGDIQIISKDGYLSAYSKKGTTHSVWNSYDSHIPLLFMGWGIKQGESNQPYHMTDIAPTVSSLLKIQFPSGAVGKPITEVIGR
Change	oxyanion analog dissociation constant [µM]
T274V	2.1
N4G	1.98
M342G	1.78
W22V	1.78
T248V	2.23
A145G	7.89
D183G	2.25
T169G	1.15

Sample 3 — cell line: HEK-293T; effect on: pseudovirus infection; technique: FDA-approved drug library counter-screen; organism: VSV pseudotyped with VSV-G; tested at: 10 µM; time: 16 h; relative to: vehicle-treated
Compound	GFP-positive cells
CCOC(=O)C1=C[C@@H](OC(CC)CC)[C@H](NC(C)=O)[C@@H](N)C1	107%
CCCCC1C(=O)N(c2ccccc2)N(c2ccccc2)C1=O	104%
O=C1Nc2ccc(Cl)cc2[C@@](C#CC2CC2)(C(F)(F)F)O1	87.2%

Mixed results
SMILES	target	assay	system	conditions	measurement	value
O=c1c(O)cccc2cc(O)c(O)c(O)c12	chymotrypsin	enzyme activity, inhibitor		10 µM, with DTT	inhibition	9.3%
CCN(CC)C(=O)c1ccc(C2=CC3(CCNCC3)Oc3cccc(O)c32)cc1	Delta-type opioid receptor, with Gi3 (OPRD1, Homo sapiens, UniProt P41143)		human cells		Emax	111 ± 2%
Nc1ccc(O)c2ncccc12	chymotrypsin	enzyme activity, inhibitor		10 µM, with DTT	inhibition	5%

A few entries again (sample 2):
Change	oxyanion analog dissociation constant [µM]
T169G	1.15
A145G	7.89
N4G	1.98
